Experimental data of several laboratories.
Parts stem from different laboratories: compare values within a part only.

Study 1
Target: Interferon regulatory factor 7, full length, phosphomimetic (IRF7, Homo sapiens, UniProt Q92985, residues 1-503, S101K/S471D/S472D/S475D/S476D/S477D/S483D/S484D/S487D)
Method: protein-binding microarray
Form: double-stranded DNA, one strand shown
Matrix: in vitro
Concentration: 250 nM
Notes: 60-bp whole probe
With: salmon DNA 0.4 mg/ml
Relative to: random background probes
Direction: higher = stronger binding
Endpoint: log fluorescence
All sequences stand within: GCCTAGCAC … GTCTTGATTCGCTTGACGCTGCTG
Residues (chain): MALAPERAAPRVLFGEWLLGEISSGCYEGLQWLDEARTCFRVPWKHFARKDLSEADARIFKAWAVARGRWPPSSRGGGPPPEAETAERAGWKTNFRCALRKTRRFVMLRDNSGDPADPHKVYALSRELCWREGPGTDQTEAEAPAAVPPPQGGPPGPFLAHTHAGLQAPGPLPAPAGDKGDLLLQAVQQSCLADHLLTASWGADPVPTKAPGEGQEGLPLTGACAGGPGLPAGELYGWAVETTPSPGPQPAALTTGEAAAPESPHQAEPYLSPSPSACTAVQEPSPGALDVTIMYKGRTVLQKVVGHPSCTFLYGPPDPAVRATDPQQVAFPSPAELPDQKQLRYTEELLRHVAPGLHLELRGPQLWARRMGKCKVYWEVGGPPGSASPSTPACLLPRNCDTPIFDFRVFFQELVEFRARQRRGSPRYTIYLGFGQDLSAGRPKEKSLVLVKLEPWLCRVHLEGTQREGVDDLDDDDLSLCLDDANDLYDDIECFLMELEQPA
TCAATTCTGAAAATGGAACTGTGCTAG: 0.525 z-score
CACGGTTTCCTTCTCCTGACGTGCTAG: 2.44 z-score
TTAGGGTTCGGTTTCGGTTAGTGCTAG: 10.6 z-score
TTTTCATTATTGTCTCCCCCAGTGCTA: 1.32 z-score
GAAGGTTTCCTACTGCTGACGTGCTAG: 1.11 z-score
TTAGGTCTCGGACCGGGTTAGTGCTAG: 0.672 z-score
TTAGGTATCGATACTGGGTTAGTGCTA: 0.838 z-score
TTAGATCTCGGGTATCGATTAGTGCTA: 0.795 z-score
TTAGTTTTCCTTATCCTTTAGTGCTAG: 2.54 z-score
TTAGGACTGGGGTATCGCTTAGTGCTA: -0.199 z-score
TCAATTTTTACTTTCTGACTGTGCTAG: 0.797 z-score
GACGAACTGAGTATCGAAACGTGCTAG: 0.686 z-score
TCATCTGTCATGTTTGTCACTGTGCTA: 0.141 z-score
TTAGGTTTCCTACTACTTTAGTGCTAG: 1.2 z-score
TTAGAACTGGGGTTTCGGTTAGTGCTA: 5.71 z-score
TCATGTTGCTGTTTGAGACTGTGCTAG: 0.749 z-score
TCAGTTTTCAATTTTTGACTGTGCTAG: 1.15 z-score
GACGGTATCGGGGCTGGGGACGTGCTA: -0.423 z-score

Study 2
Organism: Saccharomyces cerevisiae
Observed: binding
Method: competitive growth deep sequencing
Form: peptide
Strain: cyclin D3-Cln2 fusion strain
Notes: peptide tiling library
Direction: direction not given
Endpoint: enrichment score
LRRQLSFSED: 0.153
TTTTSPRTPPPLTVQD: 2
PQWPCGKHKRVLIFAS: -1.54
VSRNLRSSLKSSLHTL: -3.21
RKLHFEDEVT: -0.0723
ARKRLELGNLGNPQ: -1.53
RRVLCFDS: -1.44
LRRKLFLDGNGSIS: -1.15
SCCKRKLVVGNGPEGP: -1.5
PPTFLSTGEIHAFLSS: -0.294
RKLDLEGIGR: -0.161
NNIRKALSFDNRGEEH: 0.862
KVKRRLDLDIDGLQKE: -0.237
NFETPEAETPIRSPFK: 1.2
PPKPLKKLRFDIEGSD: -0.127

Study 3
Target: RING finger protein unkempt homolog, zinc fingers 1-6, GST-SBP tag (UNK, Homo sapiens, UniProt Q9C0B0, residues 30-357)
Method: RNA Bind-n-Seq
Form: RNA
Matrix: in vitro
Concentration: not given
Notes: RNA with constant flanks, human-mouse chimeric sites, ends assumed
Relative to: input RNA pool
Direction: higher = stronger binding
Endpoint: bound/input enrichment
All sequences stand within: GGGAGUUCUACAGUCCGACGAUC … CAACAGAGGAUUGAGCAUCA
Construct (chain): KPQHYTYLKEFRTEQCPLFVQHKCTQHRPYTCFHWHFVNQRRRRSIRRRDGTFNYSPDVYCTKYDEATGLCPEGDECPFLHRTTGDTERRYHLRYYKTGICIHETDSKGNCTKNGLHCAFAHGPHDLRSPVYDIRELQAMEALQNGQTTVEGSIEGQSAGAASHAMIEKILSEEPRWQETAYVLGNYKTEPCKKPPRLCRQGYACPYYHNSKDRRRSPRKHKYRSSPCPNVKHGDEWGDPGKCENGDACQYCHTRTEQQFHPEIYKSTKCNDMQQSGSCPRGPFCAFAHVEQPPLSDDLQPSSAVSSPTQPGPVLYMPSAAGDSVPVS
UUAUCCAAGACUCAACGAAAGACUCCAACCGUUAUUCAUAAACAUUAUCAAAUUCAUCGGAUUCGACAUUUUUAUAUGAGAAAAGUCAAAUUUACUCAACAGAAUUACCAUGACAGACUG: 0.385 ratio
GGACAUCUUGUCAGGAUUUAUGUUCCUGUGAAACAAGUGAACACUCUGAUACACUUCAUCUGCUUGUACAUCUGUAUGAUAGAGAAACAGAAAUCUAUUAAUCCAAGCAAUGUGUCACUU: 0.0669 ratio
CCCACGCCUCCUCUCCCACAGGCCCAAGAUAUAACCCACCAGUGCCUUUUGUCUUCCUGUCAGCUCUGUCAAUCACGCCUGUCCUCUCACGCCCACACUCCCCAGCCAAAGUGGGGAGGG: 0.791 ratio
UAAGUUAUUUUGUACAGCUUUGUAAAUUCUUAACAUUUUUAUAUUGCCAUGUUUAUUUUGUUUGGGUGCUUUAUUAAAUACAUGGCCUAGCUAAGGUAAUGAACAUCUUUUUCAGUAAUU: 5.43 ratio
CCCACGCCUCCUCUCCCACAGGCCCAAGAUAUAACCCACCAGUGCCUUUUGUCUUCCUGUCAGCUCUGUCAAUCACGCCUGUCCUCUCACGCCCACACCAAGUGCCCCCACCCCUAAGGG: 0.514 ratio
GGCCUGGACCUUCCUGGGGCUAGUACAAAUAGCGGCAGUGGAGGCUCGAGAGGAAAGUUUGUUAGUGAGGCAGUGGUUAGAGGCCGUCAUGUACGGUCCUUUACUCGAUAGAUGUGUUCU: 0.421 ratio
ACCAUUUUCGCGGUUCAGGCUUUGUGUUGUAUUUACUUACGGUAUUAAAUUAUUAUUCUGCUUAGCUUAUAAUAAGGAUAAUUGCAUUUAAAGAGGUUACUGAAUGUUACUCUGAAACUU: 0.445 ratio
AAAGAGUGGAUAGAGUGUGCACACGGGAUCGGUUAUACCCGGGCGAAAAAGGAGUGCAAGAUAGAGUUCGAUGACUUCGUAGAGUGUUUGCUUCGGUACAAAACGAUGAGGCGAAUGCAU: 0.469 ratio

Study 4
Target: RNA binding protein fox-1 homolog 2, RRM domain, GST-SBP tag (RBFOX2, Homo sapiens, UniProt O43251-10, residues 100-194)
Method: RNA Bind-n-Seq
Form: RNA
Matrix: in vitro
Concentration: 365 nM
Notes: natural RNA segment, single round, ends assumed
Relative to: no-protein control
Direction: higher = stronger binding
Endpoint: RBNS enrichment (R)
All sequences stand within: GGGAGUUCUACAGUCCGACGAUC … UGGAAUUCUCGGGUGCCAA
Target sequence (chain): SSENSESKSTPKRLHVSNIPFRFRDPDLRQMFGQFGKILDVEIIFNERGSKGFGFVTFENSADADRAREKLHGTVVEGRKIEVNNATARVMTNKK
UGCACUGUCUUUUGUAGCUCUGGACUGGAGGGGUAGAUGGGGAGUCAAUUACCCAUCACAUAAAUAUGAAACAUUUAUCAGAAAUGUUGCCAUUUUAAUGAGAUGAUUUU: 0.475
UGGGGCCUCUCAUUUUUUAUAAGCUCUUGAUAUACUUGAACAAUUUAAUAUGUACAGUUAGUUUGCUCUGGAUUAGUAUAUAAGUACAUUUUAUUAGGGGUUGUGACAAC: 0.549
UUCACUUUCCAAAGAAUUCAUCUUCCAGCCAGUCCCGUUGUGUCCUUGCUUGUCUGCAUUUAUUAGUGGUAAUAUUCUUUUACGUAUAAUAAAUUUUUAUACCCAAGCCU: 0.473
UUUUUCCUCCUCCAAUUGUUUUACCAGACCAGAGAGAGAAAUAAAAACCUCUCCUCACACUUGGUAUGGAGACUCGACUGAAAAUGAGUUGAGUUUGGUCCUCUCCUUUU: 0.308
UCAGAAGCAAGGACUCAAAAAGCAAAGGUGCACGGCGAGGCCACGAAGCCCACGCCAGCCCGGGGAUGGAGCAUGUAUGUAUUAUUUAUCUGCUGGAGUUCUACGUUUUU: 2.28
AGAACUCUGAUUGUGGGUAAUCCAUAAGCUUCCUCUACAGGCUCCCCGCUUGGUUCUCACUUCUGCCUUACUUCACUUUCUGAUCCAUCUCUCUCUUCAGCCGCUCCACA: 0.967
UUUAUCAUUCAGAAAUCUUGCAUUUUCAAAAAUUCAGUGCAAGCGCCAGGCGAUUUGUGUCUAAGGAUACGAUUUUGAACCAUAUGGGCAGUGUACAAAAUAUGAAACAA: 0.356
AGAAAAAUCUGAAGGUCAGCGGAGACCUCAGAGAAAACGGGGGCAAAGUGUCUUAGGCCAGAAGUACGCUGUAGCAUUGUAACAUUGUGCAGAUGGAGACACCCCACCCC: 0.478

For quick reference, copied from above (study 1):
TTAGGTCTCGGACCGGGTTAGTGCTAG: 0.672 z-score
TTAGGGTTCGGTTTCGGTTAGTGCTAG: 10.6 z-score
CACGGTTTCCTTCTCCTGACGTGCTAG: 2.44 z-score
TTAGGTATCGATACTGGGTTAGTGCTA: 0.838 z-score
TTAGTTTTCCTTATCCTTTAGTGCTAG: 2.54 z-score
